Measured values collected from several papers.
Each line is one published result; not all experiments were run side by side. “And” joins repeats or separate records; there may be more than shown. No end group written: not given here.
histone H4: histone H4 (Bos taurus, UniProt P62803)
GFP/gp17 fusion: GFP/gp17 fusion (bacteriophage T4)
T1: NR1I2/NCOA1 PXR LBD , SRC-1 140-434 (Homo sapiens); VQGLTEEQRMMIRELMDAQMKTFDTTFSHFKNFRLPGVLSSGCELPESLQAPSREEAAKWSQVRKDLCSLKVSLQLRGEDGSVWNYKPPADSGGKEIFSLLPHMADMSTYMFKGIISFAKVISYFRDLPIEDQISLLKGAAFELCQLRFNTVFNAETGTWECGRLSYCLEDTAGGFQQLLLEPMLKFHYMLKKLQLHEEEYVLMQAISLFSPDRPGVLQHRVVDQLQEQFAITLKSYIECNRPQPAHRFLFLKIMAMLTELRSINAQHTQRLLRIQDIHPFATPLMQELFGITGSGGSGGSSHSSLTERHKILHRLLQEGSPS
B1: GST/UBTF 670-746; dephosphorylated; sequence looked up; chain TLQSKSESEEDDEEDEDDEDEDEEEEDDENGDSSEDGGDSSESSSEDESEDGDENEEDDEDEDDDEDDDEDEDNESE
B2: apcC (Synechocystis sp. PCC 6803, UniProt Q01950); sequence looked up; chain MRMFRITACVPSQTRIRTQRELQNTYFTKLVPYDNSFREQQRIMKMGGKIVKVELATGRPGTNAGLA
B3: MYL2 (Homo sapiens, UniProt P10916); sequence looked up; chain MAPKKAKKRAGGANSNVFSMFEQTQIQEFKEAFTIMDQNRDGFIDKNDLRDTFAALGRVNVKNEEIDEMIKEAPGPINFTVFLTMFGEKLKGADPEETILNAFKVFDPEGKGVLKADYVREMLTTQAERFSKEEVDQMFAAFPPDVTGNLDYKNLVHIITHGEEKD
B4: LAT 48-233 (Homo sapiens, UniProt O43561-2); pY132/pY171/pY191/pY226, Alexa Fluor 488; sequence looked up; chain GIQFKRPHTVAPWPPAYPPVTSYPPLSQPDLLPIPRSPQPLGGSHRTPSSRRDSDGANSVASYENEEPACEDADEDEDDYHNPGYLVVLPDSTPATSTAAPSAPALSTPGIRDSAFSMESIDDYVNVPESGESAEASLDGSREYVNVSQELHPGAAKTEPAALSSQEAEEVEEEGAPDYENLQELN
B5: SHE2 C14S/C68S/C106S/C180S (Saccharomyces cerevisiae, UniProt P36068); sequence looked up; chain MSKDKDIKVTPGTSELVEQILALLSRYLSSYIHVLNKFISHLRRVATLRFERTTLIKFVKKLRFYNDSVLSYNASEFINEGKNELDPEADSFDKVILPIASMFVKSVETFDLLNYYLTQSLQKEILSKTLNEDLTLTAESILAIDDTYNHFVKFSQWMIESLRIGSNLLDLEVVQFAIKSADEDGTNIGETDNIFLQEILPVNSEEEFQTLSAAWHSILDGKLSALDEEFDVVATKWHDKFGKLKN
B6: LRP1 932-1013 (Homo sapiens, UniProt Q07954); chain SARTCPPNQFSCASGRCIPISWTCDLDDDCGDRSDESASCAYPTCFPLTQFTCNNGRCININWRCDNDNDCGDNSDEAGCSH
B7: VPS5/VPS17 SNX-BAR complex (Saccharomyces cerevisiae); chain 1 MDYEDNLEAPVWDELNHEGDKTQSLVSNSIESIGQISTNEERKDNELLETTASFADKIDLDSAPEWKDPGLSVAGNPQLEEHDNSKADDLINSLAPEQDPIADLKNSTTQFIATRESGGALFTGNANSPLVFDDTIYDANTSPNTSKSISGRRSGKPRILFDSARAQRNSKRNHSLKAKRTTASDDTIKTPFTDPLKKAEKENEFVEEPLDDRNERRENNEGKFTASVEKNILEQVDRPLYNLPQTGANISSPAEVEENSEKFGKTKIGSKVPPTEKAVAFKVEVKDPVKVGELTSIHVEYTVISESSLLELKYAQVSRRYRDFRWLYRQLQNNHWGKVIPPPPEKQSVGSFKENFIENRRFQMESMLKKICQDPVLQKDKDFLLFLTSDDFSSESKKRAFLTGSGAINDSNDLSEVRISEIQLLGAEDAAEVLKNGGIDAESHKGFMSISFSSLPKYNEADEFFIEKKQKIDELEDNLKKLSKSLEMVDTSRNTLAASTEEFSSMVETLASLNVSEPNSELLNNFADVHKSIKSSLERSSLQETLTMGVMLDDYIRSLASVKAIFNQRSKLGYFLVVIENDMNKKHSQLGKLGQNIHSEKFREMRKEFQTLERRYNLTKKQWQAVGDKIKDEFQGFSTDKIREFRNGMEISLEAAIESQKECIELWETFYQTNL; chain 2 MTSAVPYDPYDDLDNNPFAEPQEEDSEPAATTTDGSSSMSEERVGTEQTAASVQDNGTANNIQNGLGEEGNATRSKTSNEHNENQQPSQPSERVILPERSDEKKKYTLLAKVTGLERFGSATGKKENPTIIFDCSTNLPTFRKQQYKNVKKSYEEFHQLFKYLNVAIQESFVPTLPSAYTTFGINSEEDRMKVTRNFQLWFNRLSQDPLIIRNEEVAFFIESDFNTYTPINKSKSLASGLKRKTLKQLAPPYDEITELAEFRPLVKSIYVVSQSLQEKLLRVSRNRKMMVQEENAFGQDFVNLDEHNKLYRRYGKILTAVGDIDSIIATMDMATLYDGLEWIVRDAYAVKEALTNRHFIMRNLVQAQQNSKAKQEQARRFRSRRDINPMKIDEALRQLKAAAKNEQVLTLKLQRITSNMIIERKQWISWYEEWIRSSIKEFTLRKIEYERKKLTLLERVRSDIRKADENGGLSRLGRHAVSNNNSDTSQTLKGDSWTGESNRKSQIPINKIAHTEFDDELFTEDDGYNSQDSDTTSLNARHAASLLGMSTK
B8: PAGE4 A18C (Homo sapiens, UniProt O60829); Alexa 555/647 on C18, C63; sequence looked up; chain MSARVRSRSRGRGDGQECPDVVAFVAPGESQQEEPPTDNQDIEPGQEREGTPPIEERKVEGDCQEMDLEKTRSERGDGSDVKEKTPPNPKHAKTKEAGDGQP
B9: UBTF 491-746 (Homo sapiens, UniProt P17480); sequence looked up; chain IWQQSVIGDYLARFKNDRVKALKAMEMTWNNMEKKEKLMWIKKAAEDQKRYERELSEMRAPPAATNSSKKMKFQGEPKKPPMNGYQKFSQELLSNGELNHLPLKERMVEIGSRWQRISQSQKEHYKKLAEEQQKQYKVHLDLWVKSLSPQDRAAYKEYISNKRKSMTKLRGPNPKSSRTTLQSKSESEEDDEEDEDDEDEDEEEEDDENGDSSEDGGDSSESSSEDESEDGDENEEDDEDEDDDEDDDEDEDNESE
B10: gp20 R338A/R339A (bacteriophage T4, UniProt P13334); sequence looked up; chain MKFNVLSLFAPWAKMDERNFKDQEKEDLVSITAPKLDDGAREFEVSSNEAASPYNAAFQTIFGSYEPGMKTTRELIDTYRNLMNNYEVDNAVSEIVSDAIVYEDDTEVVALNLDKSKFSPKIKNMMLDEFSDVLNHLSFQRKGSDHFRRWYVDSRIFFHKIIDPKRPKEGIKELRRLDPRQVQYVREIITETEAGTKIVKGYKEYFIYDTAHESYACDGRMYEAGTKIKIPKAAVVYAHSGLVDCCGKNIIGYLHRAVKPANQLKLLEDAVVIYRITRAPDRRVWYVDTGNMPARKAAEHMQHVMNTMKNRVVYDASTGKIKNQQHNMSMTEDYWLQAADGKAVTEVDTLPGADNTGNMEDIRWFRQALYMALRVPLSRIPQDQQGGVMFDSGTSITRDELTFAKFIRELQHKFEEVFLDPLKTNLLLKGIITEDEWNDEINNIKIEFHRDSYFAELKEAEILERRINMLTMAEPFIGKYISHRTAMKDILQMTDEEIEQEAKQIEEESKEARFQDPDQEQEDF
B11: CCS1 1-74 (Saccharomyces cerevisiae, UniProt P40202); sequence looked up; chain MTTNDTYEATYAIPMHCENCVNDIKACLKNVPGINSLNFDIEQQIMSVESSVAPSTIINTLRNCGKDAIIRGAG
B12: RAD51 (Gallus gallus, UniProt P37383); sequence looked up; chain MAMQVQFEASTDTSAEEESFGPEPISRLEQCGINANDVKKLEEAGYHTVESVAHAPKKELLNIKGISEAKADKILAEAAKLVPMGFTTATEFHQRRSEIIQITTGSKELDKLLQGGIETGSITELFGEFRTGKTQLCHTLAVTCQLPIDRGGGEGKAMYIDTEGTFRPERLLAVAERYGLSGSDVLDNVAYARGFNTDHQTQLLYQASAMMAESRYALLIVDSATALYRTDYSGRGELSARQMHLARFLRMLLRLADEFGVAVVITNQVVAQVDGAAMFAADPKKPIGGNIIAHASTTRLYLRKGRGETRICKIYDSPCLPEAEAMFAINADGVGDAKE
Sequence of UniProt O60656 (whole entry, looked up): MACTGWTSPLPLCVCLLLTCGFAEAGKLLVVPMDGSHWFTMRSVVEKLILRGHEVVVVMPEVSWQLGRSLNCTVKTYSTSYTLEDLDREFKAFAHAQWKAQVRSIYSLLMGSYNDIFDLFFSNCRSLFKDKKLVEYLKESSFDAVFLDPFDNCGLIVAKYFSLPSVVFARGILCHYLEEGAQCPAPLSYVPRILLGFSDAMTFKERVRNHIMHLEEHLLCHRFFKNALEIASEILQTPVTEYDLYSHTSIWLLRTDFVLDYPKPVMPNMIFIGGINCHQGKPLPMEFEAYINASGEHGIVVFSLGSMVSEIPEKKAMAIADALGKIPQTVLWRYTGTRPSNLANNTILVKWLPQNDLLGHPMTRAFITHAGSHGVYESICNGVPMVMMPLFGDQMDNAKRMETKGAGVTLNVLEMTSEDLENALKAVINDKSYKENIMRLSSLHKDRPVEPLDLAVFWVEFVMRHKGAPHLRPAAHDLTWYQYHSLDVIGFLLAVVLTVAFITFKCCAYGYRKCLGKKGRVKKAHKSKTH
Sequence of UniProt P30533 (whole entry, looked up): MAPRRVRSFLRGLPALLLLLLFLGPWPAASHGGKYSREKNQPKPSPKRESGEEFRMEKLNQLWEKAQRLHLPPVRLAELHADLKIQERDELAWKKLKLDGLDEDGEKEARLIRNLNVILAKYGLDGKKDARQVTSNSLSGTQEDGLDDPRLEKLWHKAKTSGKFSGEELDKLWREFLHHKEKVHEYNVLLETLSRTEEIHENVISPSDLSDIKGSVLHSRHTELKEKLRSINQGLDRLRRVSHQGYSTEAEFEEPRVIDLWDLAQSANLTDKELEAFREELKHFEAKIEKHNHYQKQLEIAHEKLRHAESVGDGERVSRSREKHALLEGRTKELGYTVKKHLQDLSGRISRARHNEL
Sequence of UniProt Q9UK59 (whole entry, looked up): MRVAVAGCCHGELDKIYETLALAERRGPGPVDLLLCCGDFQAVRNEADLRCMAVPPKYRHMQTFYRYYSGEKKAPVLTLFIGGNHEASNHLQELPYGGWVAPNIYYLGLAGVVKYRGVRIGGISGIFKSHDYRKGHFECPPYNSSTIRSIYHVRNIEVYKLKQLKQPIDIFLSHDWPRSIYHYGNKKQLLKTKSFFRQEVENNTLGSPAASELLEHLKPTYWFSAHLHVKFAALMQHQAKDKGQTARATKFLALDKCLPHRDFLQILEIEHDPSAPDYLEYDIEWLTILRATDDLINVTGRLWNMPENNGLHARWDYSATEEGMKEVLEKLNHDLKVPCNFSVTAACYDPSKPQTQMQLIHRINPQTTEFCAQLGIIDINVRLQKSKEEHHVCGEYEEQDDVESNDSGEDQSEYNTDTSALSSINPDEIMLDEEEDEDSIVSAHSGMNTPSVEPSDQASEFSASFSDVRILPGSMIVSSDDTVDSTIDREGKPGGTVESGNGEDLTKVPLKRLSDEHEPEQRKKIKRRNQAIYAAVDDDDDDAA
Sequence of UniProt P05653 (whole entry, unmodified, looked up): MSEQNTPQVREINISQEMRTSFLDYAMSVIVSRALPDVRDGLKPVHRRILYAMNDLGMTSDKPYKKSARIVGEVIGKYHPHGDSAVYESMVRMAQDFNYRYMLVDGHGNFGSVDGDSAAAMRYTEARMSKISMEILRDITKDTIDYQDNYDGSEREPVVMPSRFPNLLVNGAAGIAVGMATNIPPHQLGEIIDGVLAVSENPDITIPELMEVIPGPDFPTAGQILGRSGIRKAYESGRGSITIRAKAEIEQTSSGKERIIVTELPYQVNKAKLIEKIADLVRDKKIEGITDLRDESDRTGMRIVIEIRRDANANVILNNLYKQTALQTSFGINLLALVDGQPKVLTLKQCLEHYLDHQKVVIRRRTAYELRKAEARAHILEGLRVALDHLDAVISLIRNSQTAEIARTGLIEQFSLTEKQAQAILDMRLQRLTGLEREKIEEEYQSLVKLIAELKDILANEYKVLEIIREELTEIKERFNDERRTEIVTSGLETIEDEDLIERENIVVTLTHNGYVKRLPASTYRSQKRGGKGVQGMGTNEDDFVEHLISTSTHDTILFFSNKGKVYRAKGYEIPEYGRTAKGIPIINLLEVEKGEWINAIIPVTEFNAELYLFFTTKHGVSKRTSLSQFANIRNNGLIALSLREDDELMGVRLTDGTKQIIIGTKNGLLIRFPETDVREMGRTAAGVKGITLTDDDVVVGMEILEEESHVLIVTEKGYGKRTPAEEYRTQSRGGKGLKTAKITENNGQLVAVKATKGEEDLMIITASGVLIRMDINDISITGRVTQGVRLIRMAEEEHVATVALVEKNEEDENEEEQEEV
Sequence of UniProt P12883 (whole entry, looked up): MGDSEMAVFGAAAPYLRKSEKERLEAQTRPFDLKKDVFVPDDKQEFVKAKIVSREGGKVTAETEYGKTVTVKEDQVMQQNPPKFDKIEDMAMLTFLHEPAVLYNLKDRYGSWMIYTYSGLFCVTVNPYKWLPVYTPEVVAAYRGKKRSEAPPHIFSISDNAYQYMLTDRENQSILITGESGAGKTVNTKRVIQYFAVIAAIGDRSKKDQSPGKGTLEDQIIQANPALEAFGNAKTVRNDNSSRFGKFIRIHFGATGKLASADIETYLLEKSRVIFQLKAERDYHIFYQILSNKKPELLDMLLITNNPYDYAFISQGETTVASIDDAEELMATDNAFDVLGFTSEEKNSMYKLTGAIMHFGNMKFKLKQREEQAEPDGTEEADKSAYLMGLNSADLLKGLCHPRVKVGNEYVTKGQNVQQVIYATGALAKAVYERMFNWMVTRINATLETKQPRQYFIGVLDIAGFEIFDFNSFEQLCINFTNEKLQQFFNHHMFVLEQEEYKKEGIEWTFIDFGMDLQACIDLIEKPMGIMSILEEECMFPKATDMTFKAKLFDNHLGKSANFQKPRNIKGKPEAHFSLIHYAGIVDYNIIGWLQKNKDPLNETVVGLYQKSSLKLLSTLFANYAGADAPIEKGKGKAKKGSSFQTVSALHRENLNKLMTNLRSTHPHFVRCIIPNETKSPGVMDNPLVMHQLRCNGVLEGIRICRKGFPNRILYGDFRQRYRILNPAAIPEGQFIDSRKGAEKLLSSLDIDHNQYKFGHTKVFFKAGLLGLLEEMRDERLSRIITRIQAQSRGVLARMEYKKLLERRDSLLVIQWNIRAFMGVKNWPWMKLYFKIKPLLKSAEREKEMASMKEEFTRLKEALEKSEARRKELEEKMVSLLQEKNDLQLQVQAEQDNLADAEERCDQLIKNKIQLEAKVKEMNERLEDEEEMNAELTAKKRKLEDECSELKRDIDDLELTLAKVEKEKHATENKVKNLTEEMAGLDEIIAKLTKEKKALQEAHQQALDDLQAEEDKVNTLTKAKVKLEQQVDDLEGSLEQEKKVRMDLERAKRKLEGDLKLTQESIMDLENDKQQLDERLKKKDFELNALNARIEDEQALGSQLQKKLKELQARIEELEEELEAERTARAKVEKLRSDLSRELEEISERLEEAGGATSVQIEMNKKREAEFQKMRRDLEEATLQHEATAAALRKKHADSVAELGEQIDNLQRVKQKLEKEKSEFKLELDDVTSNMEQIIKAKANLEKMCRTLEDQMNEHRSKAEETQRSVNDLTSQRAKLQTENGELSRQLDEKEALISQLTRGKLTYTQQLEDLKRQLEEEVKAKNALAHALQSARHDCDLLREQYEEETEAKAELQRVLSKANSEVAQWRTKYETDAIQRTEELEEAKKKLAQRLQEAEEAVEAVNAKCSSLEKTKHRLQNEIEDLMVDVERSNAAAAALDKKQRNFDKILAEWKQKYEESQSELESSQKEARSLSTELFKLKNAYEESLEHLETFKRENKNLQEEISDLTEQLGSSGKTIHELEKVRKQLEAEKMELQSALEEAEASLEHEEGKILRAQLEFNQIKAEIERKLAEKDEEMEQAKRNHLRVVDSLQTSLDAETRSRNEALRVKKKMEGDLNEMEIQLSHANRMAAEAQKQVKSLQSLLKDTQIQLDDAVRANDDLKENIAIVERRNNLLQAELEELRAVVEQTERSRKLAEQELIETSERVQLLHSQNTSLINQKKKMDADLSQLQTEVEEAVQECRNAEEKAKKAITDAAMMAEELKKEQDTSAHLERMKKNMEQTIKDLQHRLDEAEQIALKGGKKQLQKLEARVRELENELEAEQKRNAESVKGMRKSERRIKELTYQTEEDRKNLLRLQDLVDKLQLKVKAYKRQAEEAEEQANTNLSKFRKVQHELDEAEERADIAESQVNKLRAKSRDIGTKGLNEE
Sequence of UniProt P05652 (whole entry, looked up): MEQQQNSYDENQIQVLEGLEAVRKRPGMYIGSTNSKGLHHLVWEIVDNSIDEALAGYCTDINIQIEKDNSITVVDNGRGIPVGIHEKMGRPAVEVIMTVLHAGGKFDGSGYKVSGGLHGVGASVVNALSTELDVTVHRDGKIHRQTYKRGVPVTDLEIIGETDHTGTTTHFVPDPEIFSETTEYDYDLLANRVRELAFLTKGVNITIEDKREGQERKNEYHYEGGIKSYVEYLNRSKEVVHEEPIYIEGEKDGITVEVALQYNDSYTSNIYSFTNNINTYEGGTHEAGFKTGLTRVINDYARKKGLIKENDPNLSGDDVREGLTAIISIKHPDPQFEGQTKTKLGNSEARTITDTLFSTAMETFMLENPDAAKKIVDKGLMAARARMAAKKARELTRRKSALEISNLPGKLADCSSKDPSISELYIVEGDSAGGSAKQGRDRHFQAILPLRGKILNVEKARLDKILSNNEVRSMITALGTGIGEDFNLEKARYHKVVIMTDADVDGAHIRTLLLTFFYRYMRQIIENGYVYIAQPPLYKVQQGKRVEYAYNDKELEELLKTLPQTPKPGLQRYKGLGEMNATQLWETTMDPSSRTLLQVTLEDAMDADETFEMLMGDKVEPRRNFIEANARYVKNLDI
Sequence of UniProt Q01952 (whole entry, looked up): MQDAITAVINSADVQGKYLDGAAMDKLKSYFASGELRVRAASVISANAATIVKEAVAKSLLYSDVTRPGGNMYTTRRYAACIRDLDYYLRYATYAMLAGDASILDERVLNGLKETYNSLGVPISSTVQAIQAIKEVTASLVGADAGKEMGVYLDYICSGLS

| Molecule | target or system | assay | system | conditions | endpoint | value |
| --- | --- | --- | --- | --- | --- | --- |
| B1 (GST/UBTF 670-746) | TBP/TAF1A/TAF1B/TAF1C (Homo sapiens) | pull-down | not purified SL1 | with or without phosphatase | binding | binds |
| SEETKENEGFTVTAEGKGQGTLSVVTMYHAKAKDQLTCNK (C3 1321-1360 (Homo sapiens, UniProt P01024); sequence looked up) | ITGAM 145-331 (Homo sapiens, UniProt P11215) | ELISA |  | together with: MgCl2 1 mM | binding | binds |
| B2 (apcC) | apcB, bilin at Cys81 (Synechocystis sp. PCC 6803, UniProt Q01952) | cross-linking |  |  | binding | binds |
| BACH1 BTB domain C55A, S-nitrosylation treated (Homo sapiens) (sequence not shown) | FBXL17/SKP1 FBXL17 310-701 (Homo sapiens) | BLI |  | apparent | binding | binds |
| B3 (MYL2) | MYH7 1-834 (Homo sapiens, UniProt P12883) | cross-linking |  | 4 µM, 20 min, pH 7.3, 25 °C, KCl 50 mM, together with: ATP | binding | binds |
| ORAI1 fragment K85E, fluorescein label (Homo sapiens) (sequence not shown) | Stim1 fragment (Mus musculus) | fluorescence polarisation |  |  | binding | binds |
| BRD1 fragment E62A/D63A/D64A (Homo sapiens) (sequence not shown) | histone H4 | pull-down |  |  | binding | binds |
| Ac-WKLLITIHDRKEFAKF-{βAla-βAla-cellulose} (ITGB3 715-730 (Homo sapiens); reading uncertain; also: C-terminus attached to cellulose; N-acetyl, cellulose-bound; βAla = NCCC(=O)O; cellulose = not defined here) | Myom1 fragment (Mus musculus) | peptide array | peptide | 3 h, 22 °C | binding | binds |
| B4 (LAT 48-233) | GRB2 fragment, Alexa Fluor 568 label (Homo sapiens) | TIRF microscopy |  | supported lipid bilayers | binding | binds |
| DBR1 (Homo sapiens, UniProt Q9UK59) | AQR/XAB2/ISY1/ZNF830/PPIE complex (Homo sapiens) | pull-down |  |  | binding | binds |
| UGT1A9 (Homo sapiens, UniProt O60656) | COc1ccc([C@@H]2CC(=O)c3c(O)cc(O)cc3O2)cc1O | steady-state kinetics |  | pH 7.4, 37 °C | Vmax | 0.00244 µmol/min/mg and 0.00419 µmol/min/mg |
| gyrB (Bacillus subtilis, UniProt P05652) | gyrA heterodimer 2-821 C350L/T140C/K570C, Alexa488 and Alexa546 labels (Bacillus subtilis, UniProt P05653) | smFRET |  | pH 7.5, 37 °C, KCl 100 mM | binding | binds |
| B5 (SHE2 C14S/C68S/C106S/C180S) | MYO4/SHE3/CMD1/MLC1 full length motor (Saccharomyces cerevisiae) | electron microscopy |  |  | binding | binds |
| AKLLGLLAELRSINEA (NR1I3 residues 310-325 (Homo sapiens)) | T1, NR1I2/NCOA1 PXR LBD , SRC-1 140-434 (Homo sapiens) | competition with ligand, dynamic light scattering | peptide |  | binding | binds |
| B6 (LRP1 932-1013) | LRPAP1 GST fusion 35-357, iodoacetamide-blocked cysteines (UniProt P30533) | pull-down |  |  | binding | binds |
| BRD1 fragment (Homo sapiens) (sequence not shown) | histone H4 | pull-down |  |  | binding | binds |
| Ac-QRAEEEDDDIKQLAAWAT (CHMP4C C-terminal peptide (Homo sapiens); N-terminal acetyl) | PDCD6IP 1-359 (Homo sapiens, UniProt Q8WUM4) | X-ray crystallography | peptide |  | binding | binds |
| B7 (VPS5/VPS17 SNX-BAR complex) | VPS26/VPS29/VPS35 (Saccharomyces cerevisiae) | fluorescence microscopy | supported membrane tubes | 25-50 nM, 25 °C | binding | binds |
| B8 (PAGE4 A18C) | JUN 1-241 (Homo sapiens, UniProt P05412) | single-molecule FRET |  |  | binding | binds |
| gp20 (bacteriophage T4, UniProt P13334) | GFP/gp17 fusion | co-sedimentation |  | 30 min, NaCl 100 mM, bound relative to gp23 | binding | binds |
| B9 (UBTF 491-746) | TBP/TAF1A/TAF1B/TAF1C (Homo sapiens) | pull-down | not purified SL1 | with or without phosphatase | binding | binds |
| B10 (gp20 R338A/R339A) | GFP/gp17 fusion | co-sedimentation |  | 30 min, NaCl 100 mM, bound relative to gp23 | binding | binds |
| BACH1 fragment C122E (Homo sapiens) (sequence not shown) | FBXL17/SKP1 FBXL17 310-701 (Homo sapiens) | pull-down |  |  | binding | binds |
| B11 (CCS1 1-74) | MIA40 284-403, oxidized (UniProt P36046) | pull-down |  | 10 min, pH 7.0, 25 °C, NaCl 200 mM, nonreducing | binding | binds |
| B12 (RAD51) | FANCD2 K361E/K369E/R399E/K400E/K404E/R407E/K974E (Gallus gallus, UniProt Q68Y81) | pull-down |  |  | binding | binds |

A few entries again:
| Molecule | target or system | assay | system | conditions | endpoint | value |
| --- | --- | --- | --- | --- | --- | --- |
| BACH1 fragment C122E (Homo sapiens) (sequence not shown) | FBXL17/SKP1 FBXL17 310-701 (Homo sapiens) | pull-down |  |  | binding | binds |
| UGT1A9 (Homo sapiens, UniProt O60656) | COc1ccc([C@@H]2CC(=O)c3c(O)cc(O)cc3O2)cc1O | steady-state kinetics |  | pH 7.4, 37 °C | Vmax | 0.00244 µmol/min/mg and 0.00419 µmol/min/mg |
